Published values of several laboratories.
Every numbered part comes from another study and shows a few of its results, in no order.
UniProt P14921, sequence (whole entry, looked up): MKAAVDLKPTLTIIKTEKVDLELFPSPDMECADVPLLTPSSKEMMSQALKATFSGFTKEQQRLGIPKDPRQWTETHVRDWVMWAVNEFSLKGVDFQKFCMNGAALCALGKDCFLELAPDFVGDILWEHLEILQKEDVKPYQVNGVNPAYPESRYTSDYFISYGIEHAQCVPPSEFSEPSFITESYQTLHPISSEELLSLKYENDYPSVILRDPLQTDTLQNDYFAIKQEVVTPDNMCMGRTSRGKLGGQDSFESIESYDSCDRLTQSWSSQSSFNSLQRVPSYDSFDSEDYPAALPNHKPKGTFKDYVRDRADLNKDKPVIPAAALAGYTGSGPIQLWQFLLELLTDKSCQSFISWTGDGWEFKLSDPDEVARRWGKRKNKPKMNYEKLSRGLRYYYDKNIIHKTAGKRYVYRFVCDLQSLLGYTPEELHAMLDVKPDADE
UniProt P16220, sequence (whole entry, looked up): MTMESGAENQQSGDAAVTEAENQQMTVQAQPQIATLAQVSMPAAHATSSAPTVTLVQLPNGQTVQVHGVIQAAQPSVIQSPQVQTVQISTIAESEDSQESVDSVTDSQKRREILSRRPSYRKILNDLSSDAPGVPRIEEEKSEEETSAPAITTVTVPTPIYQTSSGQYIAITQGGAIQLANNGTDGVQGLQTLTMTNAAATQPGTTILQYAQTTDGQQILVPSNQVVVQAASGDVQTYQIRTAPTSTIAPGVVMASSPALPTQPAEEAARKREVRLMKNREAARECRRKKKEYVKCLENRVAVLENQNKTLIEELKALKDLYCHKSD

Block 1
Target: PABPC1L2, full length, GST fusion (mouse, UniProt A0ABA7IW68)
Technique: RNAcompete
Form: RNA
Matrix: in vitro
Tested at: 20 nM
Notes: 7-mer, probes averaged, single round
Relative to: mean of 7-mers
Reading: higher = stronger binding
Quantity: 7-mer Z-score
Construct (chain): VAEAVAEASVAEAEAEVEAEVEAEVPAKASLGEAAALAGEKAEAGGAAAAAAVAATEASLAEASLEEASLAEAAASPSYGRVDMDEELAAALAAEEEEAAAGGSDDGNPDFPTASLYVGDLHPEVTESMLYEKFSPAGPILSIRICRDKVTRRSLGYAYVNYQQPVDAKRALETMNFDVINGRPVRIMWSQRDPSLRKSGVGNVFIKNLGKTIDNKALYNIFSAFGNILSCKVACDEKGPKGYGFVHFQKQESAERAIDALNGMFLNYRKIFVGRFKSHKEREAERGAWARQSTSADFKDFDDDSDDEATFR
UAGUUCU: -0.356
UAAUUUC: -0.378
CGGUUCA: -0.119
CAAAUCU: -0.0627
GGUUCUC: -0.36
UUGUUGC: -0.318
AAUACGA: 0.51
UGAAGGU: -0.0518

Block 2
Target: Replicase polyprotein 1ab, nsp13 helicase (rep, Severe acute respiratory syndrome coronavirus 2, UniProt P0DTD1)
Action: inhibitor
Tested at: 20 µM
Quantity: inhibition
O=C(O)/C=C/c1ccc(Cn2ccnc2)cc1: 0.1%
CS(=O)(=O)c1ccc([C@@H](CC2CCCC2)C(=O)Nc2nccs2)cc1: 5.24%
Nc1ncnc2c1ncn2[C@@H]1O[C@H](CO)[C@@H](O)[C@@H]1O: 3.74%
Cc1sc(C)c(C(=O)NC2(c3ccc(C(=O)O)cc3)CC2)c1Cc1ccc(C(F)(F)F)cc1: 6.75%
Cc1noc(NS(=O)(=O)c2ccc(N)cc2)c1C: -1.09%
COc1cccc(/C=N/N=C/c2cccc(OC)c2)c1: 1.96%
COc1c2occc2c(OC)c2c(=O)cc(C)oc12: 10.3%
COc1ccc(NS(=O)(=O)c2ccc(I)cc2)cc1N1CCN(C)CC1: 3.16%
CC12CC3CC(C)(C1)CC(N)(C3)C2: 0.15%
O=C(Nc1cnc(Cl)nc1)c1ccc(F)c(F)c1: 11.6%
CS(=O)(=O)CCNCc1ccc(-c2ccc3ncnc(Nc4ccc(OCc5cccc(F)c5)c(Cl)c4)c3c2)o1: -0.21%
Oc1ccc(Cl)c2cccnc12: -4.91%
O=C(/C=C/c1cccc(F)c1)NC1CC1: 2.57%
CCOC(=O)c1ccc(OC(=O)CCCCCNC(=N)N)cc1: 4.68%
Cc1cccc(-c2[nH]c(C(C)(C)C)nc2-c2ccc3nccnc3c2)n1: 10.2%
C[C@@H](O)[C@H]1C(=O)N2C(C(=O)OCOC(=O)C(C)(C)C)=C(SC3CN(C4=NCCS4)C3)[C@H](C)[C@H]12: -1.1%
O=C(NC(O)C(Cl)(Cl)Cl)NC(O)C(Cl)(Cl)Cl (stereo not drawn): -2.1%
CC1=C(/C=C/C(C)=C/C=C/C(C)=C/C=O)C(C)(C)CCC1: 2.51%
CCCCC/C=C\C/C=C\C/C=C\CCCCC(=O)O: 11.5%
COC1=C(OC)C(=O)C(C/C=C(\C)CC/C=C(\C)CC/C=C(\C)CC/C=C(\C)CC/C=C(\C)CC/C=C(\C)CC/C=C(\C)CC/C=C(\C)CC/C=C(\C)CCC=C(C)C)=C(C)C1=O: -1.07%
CC(C)SC(=N)N: 1.29%
CC(=O)NC1CCSC1=O (stereo not drawn): -1.72%
CCn1c(-c2nonc2N)nc2c(C#CC(C)(C)O)ncc(OC[C@H]3CCCNC3)c21: 15.7%
NC(Cc1ccc(Cl)cc1)C(=O)O (racemic): 1.86%
COc1cc(NS(=O)(=O)c2ccc(N)cc2)ncn1: 2.95%

Block 3
Target: Replicase polyprotein 1ab, main protease (rep, Severe acute respiratory syndrome coronavirus 2, UniProt P0DTD1)
Read-out: enzyme activity
Action: inhibitor
Tested at: 20 µM
Notes: hit confirmation, no DTT
Quantity: inhibition
COc1cccc2c1C(=O)c1c(O)c3c(c(O)c1C2=O)C[C@@](O)(/C(CO)=N/NC(=O)CCCCCN1C(=O)C=CC1=O)C[C@@H]3O[C@H]1C[C@H](N)[C@H](O)[C@H](C)O1: 101%
O=C(O)C(=O)CBr: 74%
CSc1ccc(C(=O)c2[nH]c(=O)[nH]c2C)cc1: 68.4%

Block 4
Cell line: HEK-293T
Read-out: pseudovirus infection
Organism: VSV pseudotyped with SARS-CoV-2 spike
Tested at: 10 µM
Time: 16 h
Relative to: vehicle-treated
Quantity: GFP-positive cells
C/C(O)=C(\C#N)C(=O)Nc1ccc(C(F)(F)F)cc1: 40.9%
C[C@H](Cn1cnc2c(N)ncnc21)OCP(=O)(O)O: 93.2%
COC(=O)CCc1ccc(OCC(O)CNC(C)C)cc1 (stereo not drawn): 93.8%

Block 5
Target: TAR DNA-binding protein 43, full length, His tag (TARDBP, Homo sapiens, UniProt Q13148, residues 1-414)
Technique: RNA Bind-n-Seq
Form: RNA
Matrix: in vitro
Tested at: 20 nM
Notes: 6-mer, flanks averaged, single round
With: 150 mM LiCl
Relative to: input library
Reading: higher = stronger binding
Quantity: 6-mer enrichment (R)
UUUGGG: 1.33
UGCAGG: 1.06
CAUAAA: 0.838
GAAUCG: 0.911
CAUGUC: 0.9
AUUAUA: 1.04
AACAAG: 0.889
UGUAAG: 1.12

Mixed results
Technique: protein-binding microarray
Form: hairpin DNA
Matrix: in vitro
Tested at: not given
Notes: whole hairpin DNA, median over replicate spots
Relative to: not given
Reading: higher = stronger binding
CGGACCGGCCCGGGCATGTCTCCTGACATGCCCGGGCCGGTCCGACACTC (5mC at 6)
median fluorescence (Cellular tumor antigen p53, full length (TP53, Homo sapiens, UniProt P04637, residues 1-393)): 11100 a.u.

GAGGCCGACGACGTCGTGCCTCCTGGCACGACGTCGTCGGCCTCACACTC (5mC at 15 29)
median fluorescence (Cyclic AMP-responsive element-binding protein 1, full length (CREB1, Homo sapiens, UniProt P16220, residues 1-327)): 4070 a.u.

GAGGCCTAGCACGGGCTGCCTCCTGGCAGCCCGTGCTAGGCCTCACACTC (5mC at 31)
median fluorescence (Microphthalmia-associated transcription factor, full length (MITF, Homo sapiens, UniProt O75030-10, residues 1-413)): 7560 a.u.

GAGGCCAGCCGGAAGTGGCCTCCTGGCCACTTCCGGCTGGCCTCACACTC (5mC at 28)
median fluorescence (Protein C-ets-1, full length (ETS1, Homo sapiens, UniProt P14921, residues 1-441)): 11300 a.u.

Repeated from above (block 2):
CC1=C(/C=C/C(C)=C/C=C/C(C)=C/C=O)C(C)(C)CCC1: 2.51%
O=C(NC(O)C(Cl)(Cl)Cl)NC(O)C(Cl)(Cl)Cl (stereo not drawn): -2.1%
CCn1c(-c2nonc2N)nc2c(C#CC(C)(C)O)ncc(OC[C@H]3CCCNC3)c21: 15.7%
COC1=C(OC)C(=O)C(C/C=C(\C)CC/C=C(\C)CC/C=C(\C)CC/C=C(\C)CC/C=C(\C)CC/C=C(\C)CC/C=C(\C)CC/C=C(\C)CC/C=C(\C)CCC=C(C)C)=C(C)C1=O: -1.07%
O=C(Nc1cnc(Cl)nc1)c1ccc(F)c(F)c1: 11.6%
